# Measured values pooled from the literature.
# A part holds a random share of what one study measured. Positions count from the first letter of the parent shown.

# Block 1
# Target: CCND3, cyclin fold, Cln2 fusion (human)
# Method: yeast growth competition, sequencing
# Medium: yeast
# Setting: weak parent motif
# Relative to: not given
# Direction: higher = stronger binding
# Parent: CDC6 docking peptide (human); TLKGRRLVFDNQL; partner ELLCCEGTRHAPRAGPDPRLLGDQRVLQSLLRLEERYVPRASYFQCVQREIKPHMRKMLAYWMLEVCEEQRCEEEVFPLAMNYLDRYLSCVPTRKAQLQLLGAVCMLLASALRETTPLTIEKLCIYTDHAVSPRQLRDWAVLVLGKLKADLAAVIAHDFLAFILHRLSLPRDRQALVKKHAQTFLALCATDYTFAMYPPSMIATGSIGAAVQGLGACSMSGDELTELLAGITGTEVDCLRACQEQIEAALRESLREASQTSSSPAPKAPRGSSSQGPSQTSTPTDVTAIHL
Substitution,normalised enrichment score
T1W,0.234
Q12H,0.0982
N11D,0.139
K3D,0.0439
K3A,0.126
R5A,0.134
N11H,0.0519
L13H,0.0249
R5H,0.0941
D10S,0.199
F9T,0.0909
R6Q,0.0823
T1C,0.0697
Q12Y,0.159
L2E,0.0588
V8Y,0.07
L2G,0.124

# Block 2
# Target: ABI1, truncated, D143A, DHFR fusion (Arabidopsis thaliana)
# Method: DHFR PCA, deep sequencing
# Medium: yeast
# Setting: methotrexate growth selection, single substitutions
# Added: (+)-ABA 0 µM
# Relative to: wild-type fitted maximum
# Direction: higher = stronger binding
# Parent: PYL1, truncated, DHFR fusion (Arabidopsis thaliana); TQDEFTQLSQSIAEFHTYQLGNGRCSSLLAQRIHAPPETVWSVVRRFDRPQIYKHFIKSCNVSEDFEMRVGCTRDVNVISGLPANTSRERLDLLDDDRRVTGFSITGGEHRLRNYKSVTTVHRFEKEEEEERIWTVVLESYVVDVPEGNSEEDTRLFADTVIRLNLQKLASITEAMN
Substitution,relative binding score [%]
N61I,39.6
N77R,48.1
V118A,2.03
E109I,3.08
L29K,4.24
E139L,2.04
N165L,8.79
A170W,-8.3
S27L,-1.16
Q2A,43.1
S9K,58.4
S87N,-0.539
S150F,-15.1
E152M,2.85
G107Q,14.1

# Block 3
# Target: UBE2J2 UBC core domain (UniProt Q8N2K1)
# Method: yeast two-hybrid
# Medium: yeast
# Setting: mostly zero background
# Relative to: not given
# Direction: higher = stronger interaction
# B1: TRIM4 RING domain (UniProt Q9C037); chain EAEDIQEELTCPICLDYFQDPVSIECGHNFCRGCLHRNWAPGGGPFPCPECRHPSAPAALRP
# B2: NEURL1 RING domain (UniProt O76050); chain VTPGLGQWSDECTICYEHAVDTVIYTCGHMCLCYACGLRLKKALHACCPICRRPIKDIIKT
# B3: RNF38 RING domain (UniProt Q9H0F5); chain PNNHQSEQTLCVVCMCDFESRQLLRVLPCNHEFHAKCVDKWLKANRTCPICRADASEVHRDS
# B4: TRIM13 RING domain (UniProt O60858); chain MELLEEDLTCPICCSLFDDPRVLPCSHNFCKKCLEGILEGSVRNSLWRPAPFKCPTCRKETSATGINS
# B5: TRIM24 RING domain (UniProt O15164); chain EAARLNLLDTCAVCHQNIQSRAPKLLPCLHSFCQRCLPAPQRYLMLPAPMLGSAETPPPVPAPGSPVSGSSPFATQVGVIRCPVCSQECAERHII
# B6: TRIM40 RING domain (UniProt Q6P9F5); chain LQKDNQEEGVCPICQESLKEAVSTNCGHLFCRVCLTQHVEKASASGVFCCPLCRKPCSEEVLG
# B7: RNF208 RING domain (UniProt Q9H0X6); chain SSAAAGEPLECPTCGHSYNVTQRRPRVLSCLHSVCEQCLQILYESCPKYKFISCPTCRRETVLFTDYG
# Construct (chain): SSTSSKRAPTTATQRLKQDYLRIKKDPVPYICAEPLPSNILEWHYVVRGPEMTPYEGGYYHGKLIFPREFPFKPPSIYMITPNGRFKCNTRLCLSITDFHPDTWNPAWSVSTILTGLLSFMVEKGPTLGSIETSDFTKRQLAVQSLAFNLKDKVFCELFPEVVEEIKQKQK
Molecule,lacZ reporter activity
ASLPTSEEDLCPICYAHPISAVFQPCGHKSCKACINQHLMNNKDCFFCKTTIVSVEDWE (RNF123 RING domain (UniProt Q5XPI4)),0
B1 (TRIM4 RING domain),0
B2 (NEURL1 RING domain),13100
B3 (RNF38 RING domain),0
GAAPGPEAAECLVCSELALLVLFSPCQHRTVCEECARRMKKCIRCQVVVSKKLRPD (MIB2 RING domain (UniProt Q96AX9)),9660
B4 (TRIM13 RING domain),0
B5 (TRIM24 RING domain),0
B6 (TRIM40 RING domain),0
VEPSEENSKDCVVCQNGTVNWVLLPCRHTCLCDGCVKYFQQCPMCRQFVQESFALC (CGRRF1 RING domain (UniProt Q99675)),0
B7 (RNF208 RING domain),0
DHGAVGQEMCCPICCSEYVKGEVATELPCHHYFHKPCVSIWLQKSGTCPVCRCMFPPPL (PJA1 RING domain (UniProt Q8NG27)),9720

# Block 4
# Target: RING finger protein unkempt homolog, zinc fingers 1-6, GST-SBP tag (UNK, Homo sapiens, UniProt Q9C0B0, residues 30-357)
# Method: RNA Bind-n-Seq
# Form: RNA
# Medium: in vitro
# Tested at: not given
# Setting: RNA with constant flanks, human and mouse sites, ends assumed
# Relative to: input RNA pool
# Direction: higher = stronger binding
# Constant ends, left off below: GGGAGUUCUACAGUCCGACGAUC … CAACAGAGGAUUGAGCAUCA
# Construct (chain): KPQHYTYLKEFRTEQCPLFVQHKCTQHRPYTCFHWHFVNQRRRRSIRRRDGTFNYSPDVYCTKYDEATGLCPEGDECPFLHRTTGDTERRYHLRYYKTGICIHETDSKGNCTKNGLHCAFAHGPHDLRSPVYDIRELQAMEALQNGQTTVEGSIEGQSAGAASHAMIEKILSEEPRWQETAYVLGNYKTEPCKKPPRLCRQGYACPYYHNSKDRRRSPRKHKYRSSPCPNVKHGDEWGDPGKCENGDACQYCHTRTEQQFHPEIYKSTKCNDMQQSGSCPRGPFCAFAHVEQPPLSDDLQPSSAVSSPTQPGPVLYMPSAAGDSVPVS
Oligonucleotide,bound/input enrichment [ratio]
AGGAAGAAUCUUUUUGAAAGGCCUUUAUUCAAUACCCAUUUACAGAAGUCCUUUGUAAGUAGCAACUGGGCUGAAACACCAAGACUAGGAAAAAAAAAUGAAAGCUCUUAUUUCCCAGGA,4.57
UUUUUUUUUCCCCAAAGUGUAGUUAUGUUUUCACUAUUGCUGCUUCUAUAGAGGGCAUUGUGAUAGAGAGUUACAGAUGAAACAUUAAAUGCCACAGUGAGUAGAAAUAAUUACUACAAA,0.415
AAAGAUAUCAUUACCAAGGUUGCCAAUGUGGAACUAUACUACAGAGCAAUACAGUUCUACUUAGAAUUCAAGCCUCUGUUGUUAAAUGAUUUGCUGAUGGUGCUGUCUCCACGGUUGGAU,0.455
UUUCAUUUAAGGACUUGUGCUGCUAAGUUGAGGCCAUUGACGGCUUCCCAGACUGUUAAGACAUUUUCACAAAACAGACCAGCAGCAGCUAGGACAUUUCAACAGAUUCGGUGCUAUUCU,0.576
GAGAAACAAUGAAUAGUACAUGUAUAUGUAUAUUUUUAAACUGCCUUAUUGCUCAAUGAGUUGCUGUUCCUGGAGUAUCUAACUUUCAGUUUACUCAAAAACUUUUGGGUAAAUAAAAAA,0.5
ACCCUGGAAGAGGAGACCGUGAUGCUUGCAAUGACUCCAGAUGAUUUGCAGGAGAAGGAAGUAGCUUAUUGUUCUACCUACACCCACUGUGAGAUUCACCCAUCAAUGAUUCUUGGAGUC,0.146
UUGGGUCCCAAAGGAGAUGGUCAUUAUCCAUGGAGUUGUCCAGUGACUCAUACACGGGAAAAAAUUUAUGCCAUCUGUUCGGACUAUGCCUUUCUCAACCAGGCGACCUCAAUCUAUAAA,0.0869
GGAACAGAUUUGAAACUCUCCUACUUGAGUUCCAGAGCUGCAGGGUAUAAGUCAGUUCUCAAGAUCACCAUGACCCAGUCUAUUAUUCCAUUUAAUUUAAUGAAGGUUCAUCUUAUGGUA,0.455
